Measured values of several laboratories.
Protocols differ between the studies behind these lines. Several values in a cell are separate wells, animals, samples, runs or records. Numbers after ± are the reported error.
HCRTR2 del254-292/I293E/K294R/L160H/M161K/Q254E: Orexin receptor type 2 (HCRTR2, Homo sapiens, UniProt O43614, del254-292/I293E/K294R/L160H/M161K/Q254E)
UniProt O43614, sequence (whole entry, unmodified, looked up): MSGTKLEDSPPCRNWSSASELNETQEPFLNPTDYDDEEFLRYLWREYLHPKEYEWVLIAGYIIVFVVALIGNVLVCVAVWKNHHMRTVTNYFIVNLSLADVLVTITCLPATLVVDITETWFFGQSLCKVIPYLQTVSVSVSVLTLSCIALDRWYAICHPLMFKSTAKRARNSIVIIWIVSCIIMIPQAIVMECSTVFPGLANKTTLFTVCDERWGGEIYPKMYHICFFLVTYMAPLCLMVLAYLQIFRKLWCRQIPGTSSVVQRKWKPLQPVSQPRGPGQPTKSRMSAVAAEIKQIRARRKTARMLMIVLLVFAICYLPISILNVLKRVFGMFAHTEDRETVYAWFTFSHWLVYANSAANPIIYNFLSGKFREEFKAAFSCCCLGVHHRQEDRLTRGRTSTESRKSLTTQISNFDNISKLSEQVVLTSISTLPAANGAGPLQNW
TEM-1 β-lactamase: TEM-1 β-lactamase (UniProt P62593)
B1: FBPA (Plasmodium falciparum, UniProt Q7KQL9); chain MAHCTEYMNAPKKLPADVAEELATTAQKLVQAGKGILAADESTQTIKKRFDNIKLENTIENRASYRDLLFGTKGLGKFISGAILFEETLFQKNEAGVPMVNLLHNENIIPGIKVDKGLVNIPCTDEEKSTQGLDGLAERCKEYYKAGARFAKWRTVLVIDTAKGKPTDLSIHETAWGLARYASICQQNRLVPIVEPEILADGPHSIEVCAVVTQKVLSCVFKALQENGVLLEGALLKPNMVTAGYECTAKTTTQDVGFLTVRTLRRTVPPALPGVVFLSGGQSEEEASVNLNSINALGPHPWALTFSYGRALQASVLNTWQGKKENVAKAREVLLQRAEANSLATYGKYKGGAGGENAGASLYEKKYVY
UniProt A8HN58, sequence (whole entry, looked up): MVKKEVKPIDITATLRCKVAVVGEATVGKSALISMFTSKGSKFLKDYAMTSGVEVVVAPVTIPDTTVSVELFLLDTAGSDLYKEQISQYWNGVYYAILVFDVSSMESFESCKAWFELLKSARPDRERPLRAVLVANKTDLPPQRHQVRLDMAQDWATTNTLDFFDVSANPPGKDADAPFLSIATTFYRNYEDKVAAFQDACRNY
UniProt Q6RCE1, sequence (whole entry, looked up): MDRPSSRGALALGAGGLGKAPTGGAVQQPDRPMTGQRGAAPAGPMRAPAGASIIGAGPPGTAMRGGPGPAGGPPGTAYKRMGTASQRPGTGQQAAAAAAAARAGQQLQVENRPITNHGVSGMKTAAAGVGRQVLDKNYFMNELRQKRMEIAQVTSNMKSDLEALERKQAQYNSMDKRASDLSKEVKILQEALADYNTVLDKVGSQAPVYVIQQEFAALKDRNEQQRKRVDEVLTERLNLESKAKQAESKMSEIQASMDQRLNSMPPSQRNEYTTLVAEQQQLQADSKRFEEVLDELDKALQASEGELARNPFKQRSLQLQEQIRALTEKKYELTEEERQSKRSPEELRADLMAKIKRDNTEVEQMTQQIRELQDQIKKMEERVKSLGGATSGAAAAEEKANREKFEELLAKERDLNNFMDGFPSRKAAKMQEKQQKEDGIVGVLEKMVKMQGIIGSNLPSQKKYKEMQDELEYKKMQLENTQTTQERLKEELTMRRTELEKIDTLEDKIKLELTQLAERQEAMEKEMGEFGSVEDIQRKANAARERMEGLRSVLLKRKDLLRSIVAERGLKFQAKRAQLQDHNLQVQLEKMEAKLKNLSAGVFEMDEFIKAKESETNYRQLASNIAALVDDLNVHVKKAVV
UniProt P09616, sequence (whole entry, looked up): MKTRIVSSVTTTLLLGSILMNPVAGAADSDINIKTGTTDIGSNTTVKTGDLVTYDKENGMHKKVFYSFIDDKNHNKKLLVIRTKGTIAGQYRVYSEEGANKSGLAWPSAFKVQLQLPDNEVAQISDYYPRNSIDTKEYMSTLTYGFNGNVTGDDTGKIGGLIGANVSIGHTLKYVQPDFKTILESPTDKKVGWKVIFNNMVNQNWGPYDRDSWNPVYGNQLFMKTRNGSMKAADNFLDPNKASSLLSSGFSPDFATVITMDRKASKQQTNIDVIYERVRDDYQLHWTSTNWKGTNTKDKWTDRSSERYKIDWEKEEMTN

Substance | tested on | assay | system | setting | how to read | measurement | value
brain natriuretic peptide | hly (Staphylococcus aureus, UniProt P09616) | nanopore sensing | – | – | reference: asymmetric over symmetric electrolyte | LoD improvement | ~1600 fold
aspterric acid | – | – | Arabidopsis thaliana Col-0 seeds | 6.25 µg/mL, seed germination | – | root length | 0.127 cm
Nociceptin | HCRTR2 del254-292/I293E/K294R/L160H/M161K/Q254E | sensor fluorescence, fluorescence imaging | HEK293T | concentration not given, unit not given | reference: baseline | ΔF/F0 | 0.836 and 0.236 and -0.5 and 1.2 and 0.0374 and -1.9 and 0.301 and 0.349
CAGGIFHSLALKC (BLIP-II cyclic peptide (Streptomyces); C-terminal amide, cyclic, disulfide) | TEM-1 β-lactamase | BLI | peptide | – | – | koff | 0.00057 s⁻¹
IFT27 (Chlamydomonas reinhardtii, UniProt A8HN58) | IFT74 (Chlamydomonas reinhardtii, UniProt Q6RCE1) | cross-linking MS | – | hits only | – | interaction screen | cross-linked
nonaarginine | PorA peptide pore | peptide binding, planar bilayer single-channel recording | – | pH 7.4, +10 mV, trans side, 150 mM KCl | – | Kd | 1020 ± 100 nM
insulin human | – | item: NDN | mouse, uninfected, brain | ip, dose not given, added: insulin | reference: PBS-treated | mRNA fold change | 0.825
CXCL6 (Homo sapiens) | ORF74 whole (human herpesvirus 8, UniProt Q98146) | competition with anti-ORF74 antibody binding, flow cytometry | HEK293A.ORF74 | – | – | pIC50 | 8.75
HVLVMSATRR | – | – | peptide, C57BL/6J mice | Alzet osmotic pump, 3 mg/kg, 8 weeks | – | serum sodium | 148 mmol/L and 150 mmol/L
orexin-B | HCRTR2 del254-292/I293E/K294R/L160H/M161K/Q254E | sensor fluorescence, fluorescence imaging | HEK293T | 10 µM, added: OXB 10 µM | reference: baseline | maximal ΔF/F0 | 1370% and 651% and 975% and 734% and 900% and 967%
B1 (FBPA) | TRAP C-terminal cytoplasmic tail (Plasmodium falciparum) | SPR | – | – | – | Kd | 115 nM
E2F1 fragment R91E | CCNF/SKP1 1-546 (Homo sapiens) | fluorescence polarisation | – | – | reference: wild-type peptide, higher = weaker binding | affinity decrease | 38 fold
CDYYAYATFGFTSAAADAKVC (BLIP cyclic peptide (Streptomyces clavuligerus); C-terminal amide, cyclic, disulfide) | TEM-1 β-lactamase | BLI | peptide | – | – | Kd | 2000 ± 39 nM

A few entries again:
Substance | tested on | assay | system | setting | how to read | measurement | value
brain natriuretic peptide | hly (Staphylococcus aureus, UniProt P09616) | nanopore sensing | – | – | reference: asymmetric over symmetric electrolyte | LoD improvement | ~1600 fold
